Assay results from different studies.
Parts stem from different laboratories: compare values within a part only.

Set 1
Target: RNA binding protein fox-1 homolog 2, RRM domain, GST-SBP tag (RBFOX2, Homo sapiens, UniProt O43251-10, residues 100-194)
Technique: RNA Bind-n-Seq
Molecule type: RNA
Sample: in vitro
Tested at: 365 nM
Setting: natural RNA segment, single round, ends assumed
Relative to: no-protein control
Direction: higher = stronger binding
All sequences stand within: GGGAGUUCUACAGUCCGACGAUC … UGGAAUUCUCGGGUGCCAA
Target sequence (chain): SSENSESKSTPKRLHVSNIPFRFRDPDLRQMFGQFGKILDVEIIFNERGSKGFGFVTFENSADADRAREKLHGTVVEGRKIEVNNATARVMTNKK
For `GACAUGCUGCUUCCCAUCAGCCAGAGGGGGUCAGGGCUGCCCUGUUGCCAAACAACUCCCUGAGGCCUCUCCGCACCACCUCAGCGGGCAGGAGGUCCCACCAUGUGGAC`, “RBNS enrichment (R)” read 0.389.
Under “RBNS enrichment (R)”, `CCAGGUCUUACAGCAUUUUAUAUAUCACAUCUUUACAGAAUAACAUGAUGGCAAUAUACAAGUGGUAUUGUUAGGUGGUUUAACUUAGAAUAAAAUGAGAAUUCUUCAGU` is recorded as 0.868.
`UGCUUUGUAUCAUACCCAAUAUUUAAGGACAAUUUGUCACUCAGAGGACUUUAGAGUUAUAUUCCAACAUUCAACCUAUAGAUAAGAAACAUUUCUAACCUUUGGUUUGC`: “RBNS enrichment (R)” 0.352.
For `UGUGCAUAUAUUCUGUGAUGGGAAACAUUGUUGAUGUCCUAACAGAAAUAUAUUUUGAUCUAUUUUCCUAUGGAGUUGUUUCUAUUAUGACCAUUUAAUUUUGUUUUUAU`, “RBNS enrichment (R)” read 1.64.
`CGCCAUUUAACUUUCAGGUCGAUUUCCUUUCCUGAUCAGACAUCUUUGUGCCCCCUUUAGGAAGGAAAAGAAUACACCUACGAUGUGCCAGGCACUGUGUUAGGCGCUUU`: “RBNS enrichment (R)” 0.244.
`UCUCCCCUUUCUCUCCUGUGCUCACCUUACCUUUCCAGAGUGUAAGGGACAACUUUUAAGGAGGCGUGUCCCUGGUAGGGGCAUCCCUGUUCACCAGGUGCCUGUCAUCA` — result for “RBNS enrichment (R)”: 0.35.
For `ACUUGACUGAAUUAUGGCUUGGCACAGUGGUUGGCGAGCCUCGUAGUAUAGUCAAAUCAAUUGCAUAAGUAAUUUAUUUUCUACUUCUUAUGUCUGUGAUAAUUGCUUUG`, “RBNS enrichment (R)” read 0.247.
`CAUUCUUAAGUGUACUUGUUUAUAAGGAAUAACAUAAACUAAUCUGUACCUUUAUAUAUAUGUGUGUGUACAUAUAUACAUAUAUAAACUGUAUAGUGUACAUGGUAAUG`: “RBNS enrichment (R)” 0.288.

Set 2
Target: Histone acetyltransferase KAT6A, winged helix 1, GST fusion (KAT6A, Homo sapiens, UniProt Q92794, residues 1-85)
Technique: protein binding microarray
Molecule type: double-stranded DNA, one strand shown
Sample: in vitro
Tested at: not given
Setting: 8-mer, flanks averaged, mean of 2 arrays, mostly near background
Relative to: not given
Direction: higher = stronger binding
Residues (chain): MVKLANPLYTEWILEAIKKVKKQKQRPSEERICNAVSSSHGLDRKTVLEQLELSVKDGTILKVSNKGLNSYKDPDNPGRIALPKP
With `AGTGAACT` the E-score was -0.208.
For `CACTCAAG`, the E-score was -0.279.
`AACTACTT` gave an E-score of -0.0793.
`CCCGCCGA` has an E-score of 0.439.
With `AGAGGTGC` the E-score was 0.0274.
`CGTGGTAA` has an E-score of 0.0246.
For `AATCAACT`, the E-score was -0.125.
For `CTAACTGA`, the E-score was -0.0819.
For `GTCGGTTA`, the E-score was 0.151.
For `AACGCTCT`, the E-score was -0.0813.
For `CGGGGTGA`, the E-score was 0.00736.
With `AAAATTGA` the E-score was -0.373.
With `CACGGTAC` the E-score was 0.281.
`TACAGGGA` gave an E-score of -0.221.
For `ACCACTAA`, the E-score was -0.268.
The E-score of `ACGTAGGG` is reported as -0.0985.
With `ATTCAGTC` the E-score was 0.0142.
For `CGGGCAAC`, the E-score was 0.278.
`CCAAATGA` gave an E-score of -0.21.
`CCCATGAG` gave an E-score of -0.135.
With `CACAATGG` the E-score was -0.213.
With `GAGCAACC` the E-score was -0.0103.
The E-score of `CGTATGGC` is reported as 0.134.
With `ACCTCAGT` the E-score was -0.239.

Set 3
Target: Sal-like protein 4, full length isoform A (SALL4, Homo sapiens, UniProt Q9UJQ4, residues 1-1053)
Chain of UniProt Q9UJQ4 (whole entry, looked up): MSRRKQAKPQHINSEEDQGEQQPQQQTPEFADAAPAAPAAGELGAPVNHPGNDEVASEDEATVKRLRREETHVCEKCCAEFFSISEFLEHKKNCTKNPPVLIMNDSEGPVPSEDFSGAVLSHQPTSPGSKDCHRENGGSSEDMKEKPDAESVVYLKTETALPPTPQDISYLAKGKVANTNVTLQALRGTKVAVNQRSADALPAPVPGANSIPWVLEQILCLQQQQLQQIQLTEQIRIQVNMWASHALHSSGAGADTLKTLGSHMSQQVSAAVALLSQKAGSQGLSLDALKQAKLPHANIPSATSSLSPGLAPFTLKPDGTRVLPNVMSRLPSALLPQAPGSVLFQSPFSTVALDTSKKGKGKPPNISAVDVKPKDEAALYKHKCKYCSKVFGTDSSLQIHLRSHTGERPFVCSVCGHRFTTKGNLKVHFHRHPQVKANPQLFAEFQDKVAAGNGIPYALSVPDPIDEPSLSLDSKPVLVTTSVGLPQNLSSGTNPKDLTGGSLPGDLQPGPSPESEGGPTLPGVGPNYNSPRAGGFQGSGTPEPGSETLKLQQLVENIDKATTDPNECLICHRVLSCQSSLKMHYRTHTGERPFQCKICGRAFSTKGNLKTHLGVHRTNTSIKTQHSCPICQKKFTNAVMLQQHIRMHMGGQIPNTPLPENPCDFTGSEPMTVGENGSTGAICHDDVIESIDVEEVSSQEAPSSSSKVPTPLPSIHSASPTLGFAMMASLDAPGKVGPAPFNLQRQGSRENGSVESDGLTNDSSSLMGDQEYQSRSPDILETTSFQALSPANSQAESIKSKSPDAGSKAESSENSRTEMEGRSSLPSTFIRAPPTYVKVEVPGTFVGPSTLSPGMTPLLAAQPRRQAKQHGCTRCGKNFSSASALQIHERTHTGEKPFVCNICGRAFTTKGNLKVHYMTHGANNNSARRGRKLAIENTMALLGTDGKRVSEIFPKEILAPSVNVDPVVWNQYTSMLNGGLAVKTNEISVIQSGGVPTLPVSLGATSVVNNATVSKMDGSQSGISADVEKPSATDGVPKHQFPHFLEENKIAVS
Technique: universal PBM
Molecule type: double-stranded DNA, one strand shown
Sample: in vitro
Tested at: 600 nM
Setting: 8-mer, flanks averaged, mean of replicates
Direction: higher = stronger binding
`AACATGGG` gave an E-score of 0.025.
The E-score of `AAAGGTAA` is reported as 0.197.
For `ACCTGACT`, the E-score was -0.00548.
For `ACACACAG`, the E-score was -0.0389.
For `GGACTTTA`, the E-score was 0.141.
The E-score of `ACTCTGTC` is reported as -0.0192.
`GCTTCGGA` has an E-score of -0.0249.
With `ATCAAAGA` the E-score was 0.188.
`GATAATCC` gave an E-score of -0.0318.
`TCCCCACA` has an E-score of -0.169.
The E-score of `AGGGTTCC` is reported as -0.168.
For `GCAAAACA`, the E-score was 0.131.
`ATCTCGCA` has an E-score of 0.212.
The E-score of `CTCTGTTA` is reported as 0.0373.
`CGCGTTCA` gave an E-score of -0.0903.
`CGCCTGAA` has an E-score of -0.115.
The E-score of `CCTAACAG` is reported as -0.0522.
For `CAGAGCGC`, the E-score was -0.325.
For `ATTCCTGC`, the E-score was 0.0246.
The E-score of `CCTCATAA` is reported as 0.262.
`GGCTAGGA` gave an E-score of -0.105.
For `AGTTCCTA`, the E-score was 0.0662.
`CGTGCTAG` has an E-score of -0.161.
For `CGTGTAAC`, the E-score was 0.0492.
The E-score of `GCCTCAAA` is reported as -0.136.

Set 4
Target: Protein C-ets-1 (ETS1, Homo sapiens, UniProt P14921, residues 1-441, full length assumed)
Technique: protein-binding microarray
Molecule type: double-stranded DNA, one strand shown
Sample: in vitro
Tested at: not given
Setting: k-mer, scored over probes, only values ≥0.25
Direction: higher = stronger binding
Residues (chain): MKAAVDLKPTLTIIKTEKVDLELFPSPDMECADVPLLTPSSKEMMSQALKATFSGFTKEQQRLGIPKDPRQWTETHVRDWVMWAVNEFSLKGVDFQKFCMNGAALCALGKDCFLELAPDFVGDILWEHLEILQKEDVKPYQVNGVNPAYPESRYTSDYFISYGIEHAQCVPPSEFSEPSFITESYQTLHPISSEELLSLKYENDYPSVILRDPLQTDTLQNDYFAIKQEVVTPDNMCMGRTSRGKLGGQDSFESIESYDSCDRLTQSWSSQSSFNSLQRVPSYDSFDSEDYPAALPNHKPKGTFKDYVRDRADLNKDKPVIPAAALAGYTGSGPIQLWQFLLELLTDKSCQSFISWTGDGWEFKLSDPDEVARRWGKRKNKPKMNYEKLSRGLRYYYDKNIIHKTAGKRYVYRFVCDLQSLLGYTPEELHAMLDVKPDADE
`CACCGGGA` gave an E-score of 0.313.
`AATCCGGT` has an E-score of 0.434.
For `CGTCCGAC`, the E-score was 0.263.
For `GTGCCGGA`, the E-score was 0.425.
`GGCCGGAA` gave an E-score of 0.484.
`GGAATTGA` gave an E-score of 0.274.
`ATCCGTCC` gave an E-score of 0.363.
`GAGCGGAC` gave an E-score of 0.293.
The E-score of `TAGGCGGA` is reported as 0.356.
`AGGAAGAT` gave an E-score of 0.344.
For `CAGTATCC`, the E-score was 0.31.
For `ACTGGAAA`, the E-score was 0.319.
For `TAGCCGGA`, the E-score was 0.342.
The E-score of `GCATTTCC` is reported as 0.437.
For `ACATCCGG`, the E-score was 0.498.
`CGGACGAG` has an E-score of 0.294.
`AGGGGAAG` gave an E-score of 0.376.
For `ACGCGTCC`, the E-score was 0.315.
For `GCGGACGA`, the E-score was 0.342.
For `ACCGGATA`, the E-score was 0.486.
`AAGACCGG` has an E-score of 0.269.
With `ATCGGATG` the E-score was 0.433.
The E-score of `GGCGGAAA` is reported as 0.472.
`CAGTTTCC` gave an E-score of 0.429.

For quick reference, copied from above (set 2):
For `AATCAACT`, the E-score was -0.125.
For `CTAACTGA`, the E-score was -0.0819.
For `GTCGGTTA`, the E-score was 0.151.
For `AACGCTCT`, the E-score was -0.0813.
